Published values collected from several papers.
Each numbered part is a random draw from the data of one study; scales do not carry over between parts. Positions count from the first letter of the parent shown.

Block 1
Target: Ras GTPase-activating protein-binding protein 1, RRM domain (G3BP1, Homo sapiens, UniProt Q13283)
Chain of UniProt Q13283 (whole entry, looked up): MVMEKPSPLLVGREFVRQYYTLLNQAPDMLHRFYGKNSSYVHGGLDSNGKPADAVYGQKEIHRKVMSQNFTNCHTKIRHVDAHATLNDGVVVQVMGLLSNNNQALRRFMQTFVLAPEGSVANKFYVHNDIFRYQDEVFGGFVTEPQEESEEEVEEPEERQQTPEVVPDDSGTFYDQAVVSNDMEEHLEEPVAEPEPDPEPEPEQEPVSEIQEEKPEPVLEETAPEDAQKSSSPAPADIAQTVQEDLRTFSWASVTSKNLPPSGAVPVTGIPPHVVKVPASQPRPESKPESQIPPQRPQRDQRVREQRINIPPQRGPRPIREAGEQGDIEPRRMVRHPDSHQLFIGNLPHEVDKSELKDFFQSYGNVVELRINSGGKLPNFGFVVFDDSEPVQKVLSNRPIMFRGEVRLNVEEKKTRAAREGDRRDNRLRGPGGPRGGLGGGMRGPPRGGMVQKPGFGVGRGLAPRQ
Method: RNA Bind-n-Seq
Molecule type: RNA
Medium: in vitro
Tested at: 1 µM
Notes: whole 134-nt RNA, ends assumed
Added: 150 mM KCl
Reference: input library
Reading: higher = stronger binding
All sequences stand within: GGGAGUUCUACAGUCCGACGAUC … UGGAAUUCUCGGGUGUCAAGG
| Sequence | log2 enrichment |
| --- | --- |
| AAGUCCUGUGCUACACAUCGUAUGUACCGAAUCGGAAAAAAAGGAAAGGUUUUUGGAAAGUAUUAUGUUACGCCGUUCGGAUCUGCACUU | -0.196 |
| GCAGGAAGUAAAAACAAAUGGAAAUGCUUCGGAUAGUGGCAGGUGUGGGGGUUGCUAAGGAAAGGGUGGGAUGGGAGUGGGUAAAGAGUU | 1.69 |
| UCAAGUCCUGUGCUACACAUCGUAUGUACCGAAUCGGGAGGGUUUGGGAAAGGGAAAGUAUUAUGUUACGCCGUUCGGAUCUGCACUUCC | 0.704 |
| AGUCCUGUGCUACACAUCGUAUGUACCGAAUCGGAAAAAGGGGAAAAAGGGAAAAAGGAAAGUAUUAUGUUACGCCGUUCGGAUCUGCAC | -0.0102 |
| UGGGCGGUGGAUUUUGUUUAUUUUUUUAGCUCAUUUCCAGGGGUGGGAAUUUUUUUUUAAUAUGUGUCAUGAAUAAAGUUGUUUUUGAAA | 2.41 |
| UCAAGUCCUGUGCUACACAUCGUAUGUACCGAAUCGGAAAAAGGAGGAAAAAGGAAAGUAUUAUGUUACGCCGUUCGGAUCUGCACUUCC | -0.131 |
| UAACUUUAGAGGAGGAUCUGAUGGAUAGGGCAGUGGACGUGGAUUUGGGGAUGGCUAUAAUGGGUAUGGAGGAGGACCUGGAGGUGGCAA | -0.208 |
| AGUCCUGUGCUACACAUCGUAUGUACCGAAUCGGAAAAAAAGGAAAGGUUUUUUUGGAAAGUAUUAUGUUACGCCGUUCGGAUCUGCACU | -0.257 |
| UGGCCCUCAAGCACUGCACAGAGGCCCUUCUUUCUCUUGGCCAGUACUCCAUGGCAGACUUCACAGGGCCUUGUCCAUUGGAAAUAGAAC | -0.261 |

Block 2
Target: CCNB3, cyclin fold, Cln2 fusion (human)
Method: yeast growth competition, sequencing
Medium: yeast
Notes: strong parent motif
Reference: not given
Reading: higher = stronger binding
Parent: BRCA2 docking peptide (human); PSIKRNLLNEFDR; partner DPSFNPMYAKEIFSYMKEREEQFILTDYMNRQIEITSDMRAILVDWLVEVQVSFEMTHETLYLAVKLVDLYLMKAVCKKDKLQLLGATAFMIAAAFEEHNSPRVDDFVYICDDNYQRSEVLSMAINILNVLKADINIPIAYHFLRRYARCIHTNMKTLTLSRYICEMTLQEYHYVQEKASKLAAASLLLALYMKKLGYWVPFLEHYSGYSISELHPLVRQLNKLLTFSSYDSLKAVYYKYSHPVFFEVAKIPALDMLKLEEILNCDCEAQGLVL
| Substitution | normalised enrichment score |
| --- | --- |
| L7V | -0.0864 |
| K4M | 0.751 |
| I3Q | -0.0885 |
| N6E | 0.24 |
| L8A | 0.434 |
| S2F | 1.13 |
| F11R | 0.304 |
| E10G | -0.136 |
| F11I | 0.624 |
| N9C | 0.722 |
| L8P | -0.196 |
| N6H | 0.287 |
| N9W | 1.8 |
| P1M | 1.15 |
| F11M | 0.125 |
| F11T | 0.227 |
| P1A | 1.14 |
| L7R | 0.116 |
| S2Y | 0.957 |
| F11E | 0.343 |
| E10A | 0.173 |
| K4F | 0.223 |
| K4S | 0.384 |
| K4D | 0.169 |
| K4A | 0.78 |

Block 3
Substance: PhoQ, residues 284 288 289 292 302 303 TLSLKA
Method: Sort-seq
Item: YFP reporter
Medium: E. coli
Notes: PhoQ-PhoP variant library
Added: 10 µM Mg2+
Reference: high Mg2+ state
Reading: higher = stronger signaling
| target | fold induction |
| --- | --- |
| PhoP, residues 12 14 15 18 19 NYFRM (Escherichia coli, UniProt P23836) | 7.76 |
| PhoP, residues 12 14 15 18 19 QYFSL (Escherichia coli, UniProt P23836) | 3.54 |
| PhoP, residues 12 14 15 18 19 TQALL (Escherichia coli, UniProt P23836) | 1.8 |

Block 4
Target: Histone acetyltransferase KAT6A, winged helix 1, GST fusion (KAT6A, Homo sapiens, UniProt Q92794, residues 1-85)
Method: protein binding microarray
Molecule type: double-stranded DNA, one strand shown
Medium: in vitro
Tested at: not given
Notes: 8-mer, flanks averaged, mean of 2 arrays, mostly near background
Reference: not given
Reading: higher = stronger binding
Residues (chain): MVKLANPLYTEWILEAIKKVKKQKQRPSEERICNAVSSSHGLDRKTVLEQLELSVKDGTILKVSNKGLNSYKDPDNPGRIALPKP
| Sequence | E-score |
| --- | --- |
| GTATGTTA | 0.0286 |
| GAGCTGCA | -0.122 |
| CGGTCGAC | 0.26 |
| GTGCTTGA | -0.214 |
| GACAATGC | -0.16 |
| ACTCTTAG | -0.168 |
| AGCGGGTG | 0.278 |
| CTCAGCAC | -0.143 |
| TACCACTA | -0.142 |
| CCATCTTA | -0.0654 |
| AGCCAATA | -0.0898 |
| AGTGCCTA | -0.177 |
| CACCGGTG | 0.0972 |
| TAGCTACA | -0.208 |
| GAACCCTC | -0.0673 |
| GTACAAAC | -0.151 |
| ATCCTCGG | -0.0262 |
| CACCGAGA | -0.1 |
| TACTCTAA | 0.0178 |
| CGAGGAAG | -0.184 |
| GCTTTTAA | 0.0445 |
| ACTACAAT | 0.071 |
| AGATTGCC | -0.0782 |
| AGAAGAGC | -0.017 |
| ATCAACTG | -0.199 |

Repeated from above (block 4):
| Sequence | E-score |
| --- | --- |
| AGTGCCTA | -0.177 |
| CACCGGTG | 0.0972 |
| TAGCTACA | -0.208 |
| GAACCCTC | -0.0673 |
| GTACAAAC | -0.151 |
| ATCCTCGG | -0.0262 |
| CACCGAGA | -0.1 |
| TACTCTAA | 0.0178 |
| CGAGGAAG | -0.184 |
| GCTTTTAA | 0.0445 |
| ACTACAAT | 0.071 |
